Results of several laboratories.
Protocols differ between the studies behind these lines. Several values in a cell are separate wells, animals, samples, runs or records. ± marks the error that the study gave. Converted amounts (≈) assume the structure as drawn.
cyp121: Mycocyclosin synthase (cyp121, Mycobacterium tuberculosis, UniProt P9WPP7)
CYP1A2: Cytochrome P450 1A2 (CYP1A2, Homo sapiens, UniProt P05177)

By UniProt entry, the sequences of proteins in these tests, tags left out. Residues count along the entry.
UniProt P9WPP7, whole entry: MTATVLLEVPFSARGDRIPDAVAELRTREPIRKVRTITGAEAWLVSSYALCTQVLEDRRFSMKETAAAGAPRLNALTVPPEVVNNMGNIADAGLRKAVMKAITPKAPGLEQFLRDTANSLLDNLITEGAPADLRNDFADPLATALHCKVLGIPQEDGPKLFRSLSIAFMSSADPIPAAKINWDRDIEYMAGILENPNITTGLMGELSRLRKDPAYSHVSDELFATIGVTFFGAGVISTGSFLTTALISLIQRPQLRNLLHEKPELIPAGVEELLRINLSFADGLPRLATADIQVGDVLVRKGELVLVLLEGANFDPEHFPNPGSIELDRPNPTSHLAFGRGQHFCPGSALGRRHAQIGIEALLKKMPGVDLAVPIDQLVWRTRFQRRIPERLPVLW
UniProt P05177, whole entry: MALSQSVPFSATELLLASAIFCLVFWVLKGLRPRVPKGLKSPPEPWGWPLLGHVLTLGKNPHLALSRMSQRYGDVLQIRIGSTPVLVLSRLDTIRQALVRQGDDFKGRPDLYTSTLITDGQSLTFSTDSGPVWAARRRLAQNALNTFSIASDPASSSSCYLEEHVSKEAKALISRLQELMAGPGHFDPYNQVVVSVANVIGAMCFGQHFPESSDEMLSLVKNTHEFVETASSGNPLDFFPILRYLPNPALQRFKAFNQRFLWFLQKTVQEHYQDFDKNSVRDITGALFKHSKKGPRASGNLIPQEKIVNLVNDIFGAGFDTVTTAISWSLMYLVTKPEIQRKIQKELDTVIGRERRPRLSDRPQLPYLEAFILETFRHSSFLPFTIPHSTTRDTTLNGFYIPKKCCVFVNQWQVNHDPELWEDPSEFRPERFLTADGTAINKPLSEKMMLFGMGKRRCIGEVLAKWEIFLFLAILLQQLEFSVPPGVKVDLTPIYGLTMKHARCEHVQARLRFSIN
UniProt Q9T034, whole entry: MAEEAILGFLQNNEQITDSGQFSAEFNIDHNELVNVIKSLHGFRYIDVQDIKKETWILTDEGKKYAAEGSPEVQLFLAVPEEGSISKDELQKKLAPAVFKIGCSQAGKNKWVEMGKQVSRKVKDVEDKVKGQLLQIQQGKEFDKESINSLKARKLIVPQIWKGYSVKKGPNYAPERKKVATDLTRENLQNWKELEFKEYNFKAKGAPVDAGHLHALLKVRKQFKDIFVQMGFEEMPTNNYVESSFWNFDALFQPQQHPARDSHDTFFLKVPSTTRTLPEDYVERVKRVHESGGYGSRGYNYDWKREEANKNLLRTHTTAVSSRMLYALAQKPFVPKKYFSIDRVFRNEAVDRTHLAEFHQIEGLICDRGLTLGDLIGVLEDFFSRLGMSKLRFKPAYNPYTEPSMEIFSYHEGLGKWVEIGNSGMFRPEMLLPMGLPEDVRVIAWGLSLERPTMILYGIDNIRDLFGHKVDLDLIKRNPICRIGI
UniProt P35353, 24-415 limits assumed: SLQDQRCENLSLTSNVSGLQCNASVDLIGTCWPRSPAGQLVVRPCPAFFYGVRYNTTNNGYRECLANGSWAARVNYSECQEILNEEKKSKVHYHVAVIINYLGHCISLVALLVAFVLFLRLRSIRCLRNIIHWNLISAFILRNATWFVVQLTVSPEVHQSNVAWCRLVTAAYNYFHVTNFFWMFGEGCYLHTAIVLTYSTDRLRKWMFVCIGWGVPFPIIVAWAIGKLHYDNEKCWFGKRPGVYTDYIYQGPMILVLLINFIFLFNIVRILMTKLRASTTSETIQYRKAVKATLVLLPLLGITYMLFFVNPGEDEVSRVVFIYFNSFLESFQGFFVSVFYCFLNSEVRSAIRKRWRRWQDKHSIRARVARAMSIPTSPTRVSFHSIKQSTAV
UniProt Q9SGE9, whole entry partner: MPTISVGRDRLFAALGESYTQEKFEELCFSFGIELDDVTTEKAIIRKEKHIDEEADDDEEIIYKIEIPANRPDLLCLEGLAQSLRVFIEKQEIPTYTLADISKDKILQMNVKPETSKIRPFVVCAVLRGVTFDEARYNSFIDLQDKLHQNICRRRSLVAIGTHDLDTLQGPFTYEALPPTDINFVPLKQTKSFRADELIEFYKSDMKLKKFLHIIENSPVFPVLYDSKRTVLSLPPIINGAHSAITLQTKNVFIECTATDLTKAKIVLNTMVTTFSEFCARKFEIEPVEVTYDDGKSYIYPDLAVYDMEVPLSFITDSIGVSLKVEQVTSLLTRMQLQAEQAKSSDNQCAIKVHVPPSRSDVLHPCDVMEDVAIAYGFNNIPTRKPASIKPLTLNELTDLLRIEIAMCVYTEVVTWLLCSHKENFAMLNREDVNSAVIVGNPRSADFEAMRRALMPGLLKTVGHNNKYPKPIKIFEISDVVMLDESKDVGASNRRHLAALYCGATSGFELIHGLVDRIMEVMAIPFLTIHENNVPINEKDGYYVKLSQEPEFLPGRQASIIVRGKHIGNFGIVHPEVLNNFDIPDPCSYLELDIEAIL

Structure (SMILES)	target or system	test	system	conditions	scale	endpoint	value
COCn1cc(-c2cc([C@@H](C)NC(=O)c3cc(OCCN(C)C)ccc3C)c3ccccc3n2)cn1	Vero E6 cells			31.25 µM		viability	103% and 102%
O=C(NC1CCN(c2ncnc3[nH]cnc23)CC1)c1cccc(S(=O)(=O)Nc2ccc(Cl)cc2)c1	A549-ACE2			66.67 µM		viability	94.3%
CC1(C)CC[C@]2(C(=O)O)CC[C@]3(C)C(=CC[C@@H]4[C@@]5(C)CC[C@H](OC(=O)NCc6ccccc6)C(C)(C)[C@@H]5CC[C@]43C)[C@@H]2C1			C57BL/6 mice, brain	intraperitoneal, 85 µmol/kg		MRT(0-inf)	63.2 h
C1=C(CCNCc2ccccc2)CCCC1	Phenylalanine--tRNA ligase alpha subunit, cytoplasmic (Arabidopsis thaliana, UniProt Q9T034)	phenylalanine activation, inhibitor				IC50	> 300 µg/mL
CC(C)C[C@@H](NC(=O)[C@H](NC(=O)[C@H]1CCCN1)[C@H](C)O)C(=O)N[C@H](Cc1c[nH]cn1)C(=O)N[C@@H](C(=O)N[C@H](Cc1c[nH]cn1)C(=O)N[C@H](CC(N)=O)C(=O)N[C@H](CCCNC(=N)N)C(=O)N[C@H](CCCNC(=N)N)C(=O)N[C@H](CCCNC(=N)N)C(=O)N[C@H](CCCNC(=N)N)C(=O)N[C@H](CCCNC(=N)N)C(N)=O)[C@H](C)O			human, plasma	oral, 1 160 mg daily, day 14, mean		AUC(0-24h)	62.7 ng·h/mL
COCCN(CCOC)c1nc(C)nc2c(-c3c(OC)cc([76Br])cc3OC)c(C)nn12	Corticotropin-releasing factor receptor 1 (Rattus norvegicus, UniProt P35353)	ex vivo autoradiography	rat, awake, frontal cortex	intravenous, 1 h	relative to: choroid plexus	uptake ratio	189%
CCC(c1ccc(-c2ccc(F)cc2F)cc1F)n1ccnc1 (stereo not shown)	cyp121	binding				Kd	4.8 ± 0.84 µM
[11CH3]Nc1ccc(C(=O)C2CCN(C3Cc4ccccc4CC3O)CC2)cc1 (single isomer, unassigned)			Sprague-Dawley rat, liver	intravenous, dose not given, 5 min		radioactivity uptake	3.45 %ID/g
O=C(N[C@@H]1CC[C@@]2(O)[C@H]3Cc4ccc(O)c5c4[C@@]2(CCN3CC2CC2)[C@H]1O5)c1ccncc1F	Caco-2			20 µM, 2 h, pH 7.4, 37 °C, without elacridar	relative to: B-A over A-B	efflux ratio	7 ± 0.5
O=C(N[C@H](Cc1ccccc1)C(=O)O)c1sc2cc(F)ccc2c1Cl	CYP1A2	enzyme activity		concentration not given		inhibition	no effect
COc1ccc(NC(=O)CN2CCCN(S(=O)(=O)c3ccccc3)CC2)c(OC)c1	CYP1A2	enzyme inhibition, inhibitor				IC50	> 20 µM
O=C(NC1CCCCC1)Oc1ccc(O)c(-c2ccccc2)c1			mouse, brain	intraperitoneal, 1 mg/kg, 2 h time course		AUC	30300 ± 4370 a.u.
O=C(NCCNCCO)c1cc2c([nH]c3ccccc32)c(-c2ccc(Cl)c(Cl)c2)n1				pH 7.4		kinetic solubility	99.9 µM (≈ 44.3 µg/mL)
O=C(NC1CCN(c2ncnc3[nH]cnc23)CC1)c1cccc(NS(=O)(=O)c2ccc([N+](=O)[O-])cc2)c1	A549-ACE2			0.09145 µM		viability	107%
Cc1ccc2nc(-c3ccc4nc(-c5ccc(NC(=O)c6cccc(Cl)c6)cc5)sc4c3)sc2c1S(=O)(=O)O			aqueous buffer	pH 5.0		solubility	36.7 µg/mL
[2H]C1(C(=O)Nc2ccc3cc(C(=O)O)ccc3c2)CCN(S(=O)(=O)c2ccc(C)cc2C)CC1			rat liver microsomes			intrinsic clearance	43.3 µL/min/mg
CC(C)[C@H](N)C(=O)N[C@@H](Cc1ccc(O)cc1)C(=O)N[C@@H](Cc1ccc(O)cc1)C(=O)N[C@@H](CCCNC(=N)N)C(=O)O			citrate phosphate buffer	pH 2.6		maximum solubility	≥ 10000 µM
CC[C@H](C)[C@@H]1NC(=O)[C@H](Cc2c[nH]cn2)NC(=O)[C@H](Cc2ccc(O)cc2)NC(=O)[C@H](Cc2ccc(O)cc2)NC(=O)[C@H](C(C)C)NC(=O)[C@H](Cc2c[nH]cn2)NC(=O)[C@H](CCCCN)NC(=O)[C@H]([C@@H](C)O)NC(=O)[C@H](Cc2ccc(O)cc2)NC(=O)CSC[C@@H](C(N)=O)NC(=O)[C@H](Cc2ccc(O)cc2)NC(=O)[C@H](C(C)C)NC(=O)[C@H](CC(C)C)NC(=O)[C@H](Cc2ccc(O)cc2)NC(=O)[C@H]([C@@H](C)CC)NC(=O)[C@H]([C@@H](C)O)NC1=O	HEK293-ACE2-TMPRSS2			up to 50 µM		cytotoxicity	not toxic
COc1cccc(-c2cc(Nc3c(Nc4ccc(C(F)(F)F)cc4)c(=O)c3=O)ccc2OC)c1			water			solubility	1.5 ± 0.1 µM
Cc1cccc(NC(=O)C2CC3CCC2C3)c1C (stereo not shown)	CYP1A2	enzyme activity, inhibitor				IC50	7.75 µM
O=C(NC1CCN(c2ncnc3[nH]cnc23)CC1)c1cccc(NS(=O)(=O)c2ccc(Cl)cc2)c1	A549-ACE2			0.2743 µM		viability	103%
NCCNCCSc1ccccc1			Swiss Albino mouse, female	oral, 400 mg/kg, single dose, non-compartmental		mean residence time (MRT0-inf)	8.48 h
COc1ccc(S(=O)(=O)Nc2cccc(C(=O)NC3CCN(c4ncnc5[nH]cnc45)CC3)c2)cc1	A549-ACE2			7.407 µM		viability	102%
Fc1ccc(-c2ccc3c(c2)CCC3n2ccnc2)cc1 (stereo not shown)	cyp121	binding				Kd	7.3 ± 1.8 µM
C1c2c(-c3nnn[nH]3)n[nH]c2[C@@H]2C[C@H]12 (relative stereo)		rotarod test	wild-type mouse	subcutaneous, 10 mg/kg		motor coordination	no effect
Cc1ccc(OCCN(C)C)cc1C(=O)N[C@H](C)c1cc(-c2ccn(C)n2)nc2ccccc12	Vero E6 cells			7.812 µM		viability	108% and 117%
COc1ccc(S(=O)(=O)N2CCCN(CC(=O)Nc3ccccc3OC)CC2)cc1	CYP1A2	enzyme activity, inhibitor				IC50	> 30 µM
Cc1ccc(S(=O)(=O)Nc2cccc(C(=O)NC3CCN(c4ncnc5[nH]cnc45)CC3)c2)cc1Cl	A549-ACE2			0.823 µM		viability	101%

For quick reference, copied from above:
Structure (SMILES)	target or system	test	system	conditions	scale	endpoint	value
COCCN(CCOC)c1nc(C)nc2c(-c3c(OC)cc([76Br])cc3OC)c(C)nn12	Corticotropin-releasing factor receptor 1 (Rattus norvegicus, UniProt P35353)	ex vivo autoradiography	rat, awake, frontal cortex	intravenous, 1 h	relative to: choroid plexus	uptake ratio	189%
CCC(c1ccc(-c2ccc(F)cc2F)cc1F)n1ccnc1 (stereo not shown)	cyp121	binding				Kd	4.8 ± 0.84 µM
[11CH3]Nc1ccc(C(=O)C2CCN(C3Cc4ccccc4CC3O)CC2)cc1 (single isomer, unassigned)			Sprague-Dawley rat, liver	intravenous, dose not given, 5 min		radioactivity uptake	3.45 %ID/g
O=C(N[C@@H]1CC[C@@]2(O)[C@H]3Cc4ccc(O)c5c4[C@@]2(CCN3CC2CC2)[C@H]1O5)c1ccncc1F	Caco-2			20 µM, 2 h, pH 7.4, 37 °C, without elacridar	relative to: B-A over A-B	efflux ratio	7 ± 0.5
